Measured values pooled from the literature.
Numbered parts are unrelated; each lists some results of a single study. “And” joins repeats or separate records; there may be more than shown.
Sequence of UniProt Q9BX84 (whole entry, looked up): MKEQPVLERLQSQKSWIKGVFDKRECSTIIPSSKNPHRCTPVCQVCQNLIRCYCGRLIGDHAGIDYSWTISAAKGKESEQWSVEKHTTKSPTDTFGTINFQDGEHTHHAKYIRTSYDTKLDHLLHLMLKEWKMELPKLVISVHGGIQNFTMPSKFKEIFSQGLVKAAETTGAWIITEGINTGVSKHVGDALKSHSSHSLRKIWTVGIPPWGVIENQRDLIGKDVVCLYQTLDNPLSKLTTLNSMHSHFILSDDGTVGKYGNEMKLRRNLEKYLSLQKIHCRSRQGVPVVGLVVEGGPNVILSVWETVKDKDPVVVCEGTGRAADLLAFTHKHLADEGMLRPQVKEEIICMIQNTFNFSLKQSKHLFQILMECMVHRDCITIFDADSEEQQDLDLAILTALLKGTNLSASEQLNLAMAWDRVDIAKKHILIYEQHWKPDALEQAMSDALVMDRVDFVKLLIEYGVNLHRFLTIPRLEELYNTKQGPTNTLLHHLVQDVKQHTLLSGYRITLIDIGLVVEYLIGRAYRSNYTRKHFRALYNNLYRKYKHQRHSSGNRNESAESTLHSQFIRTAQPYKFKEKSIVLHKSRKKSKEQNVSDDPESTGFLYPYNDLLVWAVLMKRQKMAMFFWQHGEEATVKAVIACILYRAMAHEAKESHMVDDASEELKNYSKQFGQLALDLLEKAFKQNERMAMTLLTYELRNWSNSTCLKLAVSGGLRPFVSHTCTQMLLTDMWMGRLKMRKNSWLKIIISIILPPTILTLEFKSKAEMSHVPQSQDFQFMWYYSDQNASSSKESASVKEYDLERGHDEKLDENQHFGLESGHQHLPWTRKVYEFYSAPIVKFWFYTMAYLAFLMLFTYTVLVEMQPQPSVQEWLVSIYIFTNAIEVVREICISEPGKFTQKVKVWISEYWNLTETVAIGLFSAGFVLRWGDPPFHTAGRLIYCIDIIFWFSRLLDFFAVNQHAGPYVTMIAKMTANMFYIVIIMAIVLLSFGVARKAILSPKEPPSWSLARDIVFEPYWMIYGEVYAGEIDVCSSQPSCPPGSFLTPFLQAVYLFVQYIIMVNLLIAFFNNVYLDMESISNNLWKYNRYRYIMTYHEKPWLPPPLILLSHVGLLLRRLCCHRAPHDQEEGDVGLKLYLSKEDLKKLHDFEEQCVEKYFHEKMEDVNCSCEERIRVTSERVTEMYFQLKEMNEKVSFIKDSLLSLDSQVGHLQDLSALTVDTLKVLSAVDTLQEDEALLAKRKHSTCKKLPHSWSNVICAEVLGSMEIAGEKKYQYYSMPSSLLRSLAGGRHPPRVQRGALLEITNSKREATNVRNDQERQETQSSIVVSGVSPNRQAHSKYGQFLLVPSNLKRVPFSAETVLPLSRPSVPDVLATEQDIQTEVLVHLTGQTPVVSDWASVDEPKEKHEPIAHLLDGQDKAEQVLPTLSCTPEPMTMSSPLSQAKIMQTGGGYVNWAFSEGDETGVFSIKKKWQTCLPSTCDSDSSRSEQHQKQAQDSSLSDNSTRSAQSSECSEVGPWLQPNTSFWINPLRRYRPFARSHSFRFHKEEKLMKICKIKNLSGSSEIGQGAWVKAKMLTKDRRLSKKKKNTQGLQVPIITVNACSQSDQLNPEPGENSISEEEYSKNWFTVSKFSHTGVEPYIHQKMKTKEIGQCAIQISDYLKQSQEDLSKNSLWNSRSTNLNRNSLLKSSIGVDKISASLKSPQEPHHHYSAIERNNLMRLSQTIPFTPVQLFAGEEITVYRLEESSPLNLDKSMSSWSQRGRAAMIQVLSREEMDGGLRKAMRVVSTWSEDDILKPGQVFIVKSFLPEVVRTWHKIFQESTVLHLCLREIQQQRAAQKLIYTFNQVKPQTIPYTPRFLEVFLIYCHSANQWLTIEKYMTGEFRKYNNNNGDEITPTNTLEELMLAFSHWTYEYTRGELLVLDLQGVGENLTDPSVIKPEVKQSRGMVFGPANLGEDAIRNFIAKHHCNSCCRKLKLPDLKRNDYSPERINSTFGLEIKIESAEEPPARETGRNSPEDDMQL
Sequence of UniProt Q86UE8 (whole entry, looked up): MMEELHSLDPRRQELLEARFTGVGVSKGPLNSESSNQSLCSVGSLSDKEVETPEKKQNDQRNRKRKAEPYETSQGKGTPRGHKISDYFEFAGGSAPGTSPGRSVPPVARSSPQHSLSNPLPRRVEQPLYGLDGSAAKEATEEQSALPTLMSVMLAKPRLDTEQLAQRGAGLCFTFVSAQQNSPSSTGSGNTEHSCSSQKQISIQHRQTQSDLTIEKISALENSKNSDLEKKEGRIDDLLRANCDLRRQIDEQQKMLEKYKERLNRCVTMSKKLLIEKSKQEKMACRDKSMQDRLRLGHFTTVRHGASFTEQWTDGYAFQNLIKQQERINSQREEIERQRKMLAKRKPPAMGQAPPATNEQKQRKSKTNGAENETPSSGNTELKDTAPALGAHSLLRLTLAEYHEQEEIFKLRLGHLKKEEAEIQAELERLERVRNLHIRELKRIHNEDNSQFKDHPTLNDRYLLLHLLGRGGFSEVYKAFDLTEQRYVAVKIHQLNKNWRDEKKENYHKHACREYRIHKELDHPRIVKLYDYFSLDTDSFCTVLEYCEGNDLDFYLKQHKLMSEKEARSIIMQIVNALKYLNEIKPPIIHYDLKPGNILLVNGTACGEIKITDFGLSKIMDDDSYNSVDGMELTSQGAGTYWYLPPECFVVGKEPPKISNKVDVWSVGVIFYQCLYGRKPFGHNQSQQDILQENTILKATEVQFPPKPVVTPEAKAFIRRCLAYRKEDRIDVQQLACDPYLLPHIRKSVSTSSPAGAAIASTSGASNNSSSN
Sequence of UniProt P10721 (whole entry, looked up): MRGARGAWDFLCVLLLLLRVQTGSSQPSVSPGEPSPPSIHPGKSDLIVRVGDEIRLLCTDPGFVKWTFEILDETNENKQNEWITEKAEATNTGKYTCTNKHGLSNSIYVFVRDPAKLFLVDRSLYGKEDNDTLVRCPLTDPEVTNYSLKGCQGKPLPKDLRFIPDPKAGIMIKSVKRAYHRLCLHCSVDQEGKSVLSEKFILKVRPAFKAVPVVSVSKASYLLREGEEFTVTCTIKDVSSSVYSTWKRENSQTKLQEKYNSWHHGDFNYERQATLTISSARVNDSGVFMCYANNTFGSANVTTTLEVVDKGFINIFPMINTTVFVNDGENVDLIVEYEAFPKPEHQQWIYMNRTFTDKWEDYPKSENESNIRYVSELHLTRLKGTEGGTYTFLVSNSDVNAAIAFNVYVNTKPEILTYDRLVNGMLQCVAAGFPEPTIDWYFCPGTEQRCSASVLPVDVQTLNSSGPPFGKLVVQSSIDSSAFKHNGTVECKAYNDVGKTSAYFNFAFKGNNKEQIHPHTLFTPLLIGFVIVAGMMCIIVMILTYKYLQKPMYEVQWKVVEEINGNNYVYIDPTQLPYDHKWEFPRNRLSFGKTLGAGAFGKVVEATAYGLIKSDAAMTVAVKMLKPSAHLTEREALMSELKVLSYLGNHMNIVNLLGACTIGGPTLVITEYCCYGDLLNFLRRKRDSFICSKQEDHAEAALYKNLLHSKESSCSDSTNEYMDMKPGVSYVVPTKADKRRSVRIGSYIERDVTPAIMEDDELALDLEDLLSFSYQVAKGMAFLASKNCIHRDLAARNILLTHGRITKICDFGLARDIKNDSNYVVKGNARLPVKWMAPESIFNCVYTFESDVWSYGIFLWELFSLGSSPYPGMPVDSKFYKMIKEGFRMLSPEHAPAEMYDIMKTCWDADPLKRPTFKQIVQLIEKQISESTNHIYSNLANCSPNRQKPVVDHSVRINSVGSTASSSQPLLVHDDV
Sequence of UniProt Q92772 (whole entry, looked up): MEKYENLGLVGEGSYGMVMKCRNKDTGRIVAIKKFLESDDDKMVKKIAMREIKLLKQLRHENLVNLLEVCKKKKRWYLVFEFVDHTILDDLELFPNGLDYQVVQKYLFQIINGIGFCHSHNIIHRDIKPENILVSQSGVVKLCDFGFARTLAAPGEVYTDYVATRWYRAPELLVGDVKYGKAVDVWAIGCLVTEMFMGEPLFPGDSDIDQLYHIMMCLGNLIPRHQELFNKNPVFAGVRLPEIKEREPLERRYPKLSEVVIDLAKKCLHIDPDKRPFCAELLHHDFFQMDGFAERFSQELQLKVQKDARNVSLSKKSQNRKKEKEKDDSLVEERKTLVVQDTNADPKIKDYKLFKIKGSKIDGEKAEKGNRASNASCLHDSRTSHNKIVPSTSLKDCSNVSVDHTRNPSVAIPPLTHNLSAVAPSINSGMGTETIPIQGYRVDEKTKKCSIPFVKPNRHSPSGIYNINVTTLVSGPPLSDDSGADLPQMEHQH

Series 1
Cell line: HaCaT
Tested at: 100 µM
Time: 18 h
With `OC[C@@H](O)[C@@H](O[C@@H]1O[C@H](CO)[C@H](O)[C@H](O)[C@H]1O)[C@H](O)[C@@H](O)CO` the viability was 112%.
For `CC(C(=O)O)c1ccc2c(c1)CC(=O)c1ccccc1S2` (stereo not shown), the viability was 110%.
The viability of `Cn1c(=O)c2[nH]cnc2n(C)c1=O` is reported as 102% and 110%.
The viability of `C[C@H](CS)C(=O)N1CCC[C@H]1C(=O)O` is reported as 114%.
The viability of `CC(C)n1c(/C=C/[C@H](O)C[C@H](O)CC(=O)O)c(-c2ccc(F)cc2)c2ccccc21` (racemic) is reported as 107%.
With `OC[C@H]1O[C@@H](c2ccc(F)c(Cc3cc4ccccc4s3)c2)[C@H](O)[C@@H](O)[C@@H]1O` the viability was 99.1%.
`O=C(N/N=C/c1ccc([N+](=O)[O-])o1)c1ccc(O)cc1` gave a viability of 37.3%.
For `CC1(C)CCC(CN2CCN(c3ccc(C(=O)NS(=O)(=O)c4ccc(NCC5CCOCC5)c([N+](=O)[O-])c4)c(Oc4cnc5[nH]ccc5c4)c3)CC2)=C(c2ccc(Cl)cc2)C1`, the viability was 57.6%.
For `CC(C)NCC(O)COc1ccc(COCCOC(C)C)cc1` (racemic), the viability was 94.9%.
For `CN(C)CCC=C1c2ccccc2CCc2ccccc21`, the viability was 28.4%.

Series 2
Compound: COc1cccc(CNC(=O)c2nc3scc(COCc4ccc(C(=O)O)cc4)c3c(=O)[nH]2)c1
Effect on: cell-free assay
Method: competition with immobilised ligand
Tested at: 1 µM
For Mast/stem cell growth factor receptor Kit, autoinhibited (KIT, Homo sapiens, UniProt P10721): remaining binding read 81.3%.
FRK (Homo sapiens, UniProt P42685) — remaining binding: 83.7%.
PRKCE (Homo sapiens, UniProt Q02156) — remaining binding: 62%.
It gave 100% for remaining binding (CAMK2G (Homo sapiens, UniProt Q13555)).
For CAMK1G (Homo sapiens, UniProt Q96NX5): remaining binding read 100%.
The remaining binding was 52.1% (RIOK1 (Homo sapiens, UniProt Q9BRS2)).
It gave 76.2% for remaining binding (Insulin receptor (INSR, Homo sapiens, UniProt P06213)).
The remaining binding was 100% (PIK3CA (Homo sapiens, UniProt P42336, M1043I)).
For PRKAA1 (Homo sapiens, UniProt Q13131): remaining binding read 70.3%.
It gave 83.6% for remaining binding (Tyrosine-protein kinase ABL1, phosphorylated (ABL1, Homo sapiens, UniProt P00519, H396P)).
The remaining binding was 81.8% (TRPM6 (Homo sapiens, UniProt Q9BX84)).
For TGFBR1 (Homo sapiens, UniProt P36897): remaining binding read 83.2%.
CDKL2 (Homo sapiens, UniProt Q92772) — remaining binding: 66.8%.
It gave 100% for remaining binding (TLK2 (Homo sapiens, UniProt Q86UE8)).
For PIP4K2C (Homo sapiens, UniProt Q8TBX8): remaining binding read 74.7%.
It gave 100% for remaining binding (PIK3C2G (Homo sapiens, UniProt O75747)).

Series 3
Host: human
Matrix: microsomes or S9
Tested at: 2 µM
Time: 0.5 h
`Cc1ccsc1CN(Cc1cn2ccccc2c1C#N)C(C)C` has a remaining compound of 46.8%.
The remaining compound of `CN(C)C1(CNC(=O)C(O)c2ccccc2Cl)CCCCC1` (stereo not shown) is reported as 90%.
The remaining compound of `O=C(CCCOc1ccc(Cl)cc1Cl)Nc1cccc(-c2nnc(-c3ccco3)o2)c1` is reported as greater than 99.9%.
`COc1ccc(N(C)c2cc3n(c(=O)n2)CCc2cc(OC)c(OC)cc2-3)cc1` gave a remaining compound of 50.4%.

Series 4
Target: Death-associated protein kinase 3 (DAPK3, Homo sapiens, UniProt O43293)
Sequence of UniProt O43293 (whole entry, looked up): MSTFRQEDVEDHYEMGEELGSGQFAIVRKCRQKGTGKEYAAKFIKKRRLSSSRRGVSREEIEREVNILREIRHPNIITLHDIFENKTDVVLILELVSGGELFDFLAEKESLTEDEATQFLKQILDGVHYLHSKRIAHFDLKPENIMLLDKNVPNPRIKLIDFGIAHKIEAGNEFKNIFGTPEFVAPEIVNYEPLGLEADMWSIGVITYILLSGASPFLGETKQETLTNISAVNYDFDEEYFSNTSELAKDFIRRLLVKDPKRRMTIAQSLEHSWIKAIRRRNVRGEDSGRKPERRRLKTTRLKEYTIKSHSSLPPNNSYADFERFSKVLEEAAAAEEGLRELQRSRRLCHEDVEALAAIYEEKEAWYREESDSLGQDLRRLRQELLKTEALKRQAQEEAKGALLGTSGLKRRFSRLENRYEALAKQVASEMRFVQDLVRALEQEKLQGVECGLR
Effect on: enzyme activity
Mode: inhibitor
Tested at: 0.5 µM
Reference: control
`O=C1NC(=O)/C(=C/c2ccc3c(c2)OC(F)(F)O3)S1` has a remaining activity of 104%.
For `CC(C)n1cnc2c(Nc3cccc(Cl)c3)nc(NCCO)nc21`, the remaining activity was 102%.
`Nc1nc(Nc2ccc(S(N)(=O)=O)cc2)nn1C(=S)Nc1c(F)cccc1F` has a remaining activity of 94.2%.
For `N#C/C(=C(/N)SC1C=CC=CC1)c1cccc(C(O)c2ccncc2)c1` (stereo not shown), the remaining activity was 105%.
With `NC(=O)c1cccc(-c2cc(Nc3ccc(OC(F)(F)F)cc3)ncn2)c1` the remaining activity was 99.8%.
`CNc1cc2c(Nc3cccc(Br)c3)ncnc2cn1` gave a remaining activity of 90.9%.
With `COc1cc2c(N3CCN(C(=O)Nc4ccc(OC(C)C)cc4)CC3)ncnc2cc1OCCCN1CCCCC1` the remaining activity was 101%.
`NC(=O)c1ccc(-c2nc(-c3ccc4c(c3)OCCO4)c(-c3ccccn3)[nH]2)cc1` gave a remaining activity of 99.6%.
`FC(F)(F)c1ccc(/C=C/c2nc(COc3ccc(CCCCn4ccnn4)cc3)co2)cc1` gave a remaining activity of 105%.
With `COc1cc2c(Nc3ccc(Br)cc3F)ncnc2cc1OCC1CCN(C)CC1` the remaining activity was 90.3%.
